Assay results collected from several papers.
Every numbered part comes from another study and shows a few of its results, in no order.

Sample 1
Target: Histone acetyltransferase KAT6A, winged helix 1, GST fusion (KAT6A, Homo sapiens, UniProt Q92794, residues 1-85)
Technique: protein binding microarray
Molecule type: double-stranded DNA, one strand shown
Matrix: in vitro
Tested at: not given
Setting: 8-mer, flanks averaged, mean of 2 arrays, mostly near background
Relative to: not given
Direction: higher = stronger binding
Residues (chain): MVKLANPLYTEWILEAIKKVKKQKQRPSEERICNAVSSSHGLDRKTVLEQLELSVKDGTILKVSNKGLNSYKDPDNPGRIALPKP
With `CACGCGCA` the E-score was 0.404.
The E-score of `CGGCTACA` is reported as 0.253.
For `AACTCTTG`, the E-score was -0.392.
`AGACCTCA` gave an E-score of -0.136.
`GCAGCGTA` gave an E-score of 0.111.
For `CCCGTATA`, the E-score was 0.271.
For `CCGGAAGG`, the E-score was 0.106.
`ATCGCCTG` gave an E-score of -0.0628.
For `GATAAGGC`, the E-score was 0.0168.

Sample 2
Target: RNA binding protein fox-1 homolog 2, RRM domain, GST-SBP tag (RBFOX2, Homo sapiens, UniProt O43251-10, residues 100-194)
Technique: RNA Bind-n-Seq
Molecule type: RNA
Matrix: in vitro
Tested at: 365 nM
Setting: natural RNA segment, single round, ends assumed
Relative to: no-protein control
Direction: higher = stronger binding
Target sequence (chain): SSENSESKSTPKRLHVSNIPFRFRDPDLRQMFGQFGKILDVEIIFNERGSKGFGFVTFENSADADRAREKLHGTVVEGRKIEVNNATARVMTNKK
Under “RBNS enrichment (R)”, `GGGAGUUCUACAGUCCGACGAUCUUGAGAACCGCUGCUCUCAUAGACUGCUCCUCCAAGGGGAAGCAGUGUGGAACAGCAGAGAAAGUCCCGUCCCUAUCUCUGACUGUGCAGUGAGUGUGGCCUAGGAACAGUGGAAUUCUCGGGUGCCAA` is recorded as 0.364.
For `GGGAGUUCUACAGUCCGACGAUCAGCUUUAGUUUAAACAAAAGUAUUGUAUACAGGAACUAUGUAUAGUGCAGGGGUUCUUUUCAGUUAGAAAAGGCAGGUUGCUUUAAUGUUAUUCUGACUCGCAUUGUUUGUGGAAUUCUCGGGUGCCAA`, “RBNS enrichment (R)” read 0.419.
`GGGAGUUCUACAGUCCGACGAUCAUAUUUAAUUAAGGGACUAGUUGAGAUAGUUCAUGCAAAAGCACCAGAAAACUUAAAACAGGGUUCUCUGGGGCUGGAAGCCAGAUUAGGGACAGGGCCUUUUCAUUAAUUGGAAUUCUCGGGUGCCAA`: “RBNS enrichment (R)” 0.401.
`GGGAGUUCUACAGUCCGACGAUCCAGCUCUCCACACGCAGGGACUUUAUUUGGGGACAUCUGUCACCUUUGGGGUUGCCAUGGCCAAUGAGAUUUAUAAUCAUGAUCCUCUUGGGUGGUAGUUCCAAAGACACUGGAAUUCUCGGGUGCCAA`: “RBNS enrichment (R)” 0.281.
`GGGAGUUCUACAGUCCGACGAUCACUCAUGUUUAAAAGGACAAAGGGGAAUGAAGGUCAGUGAGAUCUAAAAAGUGUAUUUCUUUGCCAUUUGAUUUGGCUGAAGGACAGUCAGCAUCCUGUGUGAGAACACAUGGAAUUCUCGGGUGCCAA`: “RBNS enrichment (R)” 0.804.
Under “RBNS enrichment (R)”, `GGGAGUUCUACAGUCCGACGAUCCCCUAUGUCUUCUGUGGAGUUACAGUAUAAAGCAGGGAGCUAAUUAAGAGUAUUAAAACUUAAAACCAUUUUUUGACUCUGAUUUUAAGUACAUUUUUAUAUGUCAGUUGUGGAAUUCUCGGGUGCCAA` is recorded as 0.437.
`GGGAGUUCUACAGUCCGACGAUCGAUGUGUCCUUGUAUGCUGGUGGAUUCUUCUAGAAAGUAUUUUCUAUCUUGGUUGUAUUUGCUGCCAUCUGUCUUAUUCCCACAUUUCCCUACAGCCCAUAGUAGUGUCAUGGAAUUCUCGGGUGCCAA` — result for “RBNS enrichment (R)”: 0.825.
Under “RBNS enrichment (R)”, `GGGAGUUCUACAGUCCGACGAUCUCUGGCAAAGAGAAUACAAAUGAAACCCCUUCUUUCUCUUUCCGUCCAACAACUCUGUAGAGCUCUCUGCACCCUUACCCCUUUCCACCUUUUGUAUUUAAUUUUAAAGUUGGAAUUCUCGGGUGCCAA` is recorded as 0.429.

Sample 3
Target: RING finger protein unkempt homolog, zinc fingers 1-6, GST-SBP tag (UNK, Homo sapiens, UniProt Q9C0B0, residues 30-357)
UniProt Q9C0B0, sequence (30-357, looked up): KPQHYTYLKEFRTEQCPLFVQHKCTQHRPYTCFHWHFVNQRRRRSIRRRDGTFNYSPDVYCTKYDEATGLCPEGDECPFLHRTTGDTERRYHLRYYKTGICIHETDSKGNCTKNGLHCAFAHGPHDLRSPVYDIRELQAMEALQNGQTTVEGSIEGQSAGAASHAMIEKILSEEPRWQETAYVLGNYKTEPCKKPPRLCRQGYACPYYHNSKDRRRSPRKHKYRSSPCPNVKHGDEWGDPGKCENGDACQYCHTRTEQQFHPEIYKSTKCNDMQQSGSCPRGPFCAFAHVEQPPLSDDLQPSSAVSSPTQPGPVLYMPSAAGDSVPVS
Technique: RNA Bind-n-Seq
Molecule type: RNA
Matrix: in vitro
Tested at: not given
Setting: RNA with constant flanks, human-mouse chimeric sites, ends assumed
Relative to: input RNA pool
Direction: higher = stronger binding
`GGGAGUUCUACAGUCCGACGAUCAAAGAGAAACUAAAGCAAACUGAUUGAAAGAGGAUUGGGCAAAGAGAUUUCAUAGAGAAACUAGGAUUUAUUAGCAAACAUGAGUUAUAUUCCAGAGCGUCUCAGAAACCCCAGCCAAACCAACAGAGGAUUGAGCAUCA` gave a bound/input enrichment of 2.74 ratio.
`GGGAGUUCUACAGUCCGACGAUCGGAAGCACAAUGAUGGAGAUUGAUGGUGAUAAAGGCAAGCAGGGCGGGCCCACCUACUACAUAGACACCAAUGCCCUCCGCGUGCCCAGGGAGAACAUGGAGGCCAUCUCACCACUCAAGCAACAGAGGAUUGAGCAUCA` gave a bound/input enrichment of 0.236 ratio.
With `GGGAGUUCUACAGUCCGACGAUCGGUGGGGUGGUCAUUGCCGUUUGAGCUCUGCUGAUUCAUGAGUCGCCUUCAAAACUCUCGCAUAGGGUUGACAAUGUGGGGGGGUGGGGGAUCCAGCUUAUUCUUUUAUUUUCAAGUCCACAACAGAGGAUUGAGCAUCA` the bound/input enrichment was 1.69 ratio.
With `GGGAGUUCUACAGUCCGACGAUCUACUCAACUUUCUUGCCACAUUUUGAAUUCCAAGACAUUAUCCCUCCAGAUGACUUUCUAACGAGUGAUGAAGAGCAAGAUUUGGUUUUAUUUGGAACUAUGAGAGGACAAGUUGUUGGACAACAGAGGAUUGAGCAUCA` the bound/input enrichment was 0.173 ratio.
`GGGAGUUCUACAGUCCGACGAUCCCCUCCCCGGGCCACCCGCCCGCCCAACUCCCAGCGGGAGAUCCAGGUUUCUUCUUAUUUCAUAGCAAAUAAGAAAAAUGUUCUACGCACAUUUUGUCCUCAGUAAACGAGGGCCUCUGGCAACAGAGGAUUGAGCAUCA` gave a bound/input enrichment of 0.452 ratio.
The bound/input enrichment of `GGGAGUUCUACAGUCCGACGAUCGGCUGCUGGUGACUGUCCUGGAGUGGCUGGAGUUCCCGCCGGAGCGCGGCCAGACUAAUUUUAGAAAAUGCCAAGUAGGAAGUUUGUUGAGGGUGAAGUGGUAAGAGGUCGAUGGCCUGGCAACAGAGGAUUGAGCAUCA` is reported as 7.39 ratio.

Further values, each from its own experiment
Under interaction screen, `HSPD1 (Homo sapiens, UniProt P10809)` is recorded as “cross-linked” (HSPA9 (Homo sapiens, UniProt P38646); cross-linking MS; hits only).

Excerpt of the above (sample 2):
Under “RBNS enrichment (R)”, `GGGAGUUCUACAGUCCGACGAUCUUGAGAACCGCUGCUCUCAUAGACUGCUCCUCCAAGGGGAAGCAGUGUGGAACAGCAGAGAAAGUCCCGUCCCUAUCUCUGACUGUGCAGUGAGUGUGGCCUAGGAACAGUGGAAUUCUCGGGUGCCAA` is recorded as 0.364.
For `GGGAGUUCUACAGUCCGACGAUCAGCUUUAGUUUAAACAAAAGUAUUGUAUACAGGAACUAUGUAUAGUGCAGGGGUUCUUUUCAGUUAGAAAAGGCAGGUUGCUUUAAUGUUAUUCUGACUCGCAUUGUUUGUGGAAUUCUCGGGUGCCAA`, “RBNS enrichment (R)” read 0.419.
